# Measured values collected from several papers.
# Lines come from different studies, so protocols differ. ± marks the error that the study gave.
Compound,cell line,assay,conditions,scale,endpoint,value
CC(=O)OC[C@H]1O[C@@H](Sc2sc(C(=O)c3ccc(Br)cc3)c(N)c2-c2nc3ccccc3s2)[C@H](OC(C)=O)[C@@H](OC(C)=O)[C@H]1OC(C)=O,UO-31,SRB,"10 µM, 48 h",reference: untreated,growth,61.4%
CC(C)C[C@H](NC(=O)[C@H](CC(C)C)NC(=O)[C@@H](Cc1c[nH]c2ccccc12)NC(=O)[C@H](Cc1ccccc1)NC(=O)[C@@H](Cc1c[nH]c2ccccc12)NC(=O)[C@H](CCC(N)=O)NC(=O)[C@H](CCC(N)=O)NC(=O)[C@@H]1CCCN1C(=O)[C@H](CCCCN)NC(=O)[C@@H]1CCCN1C(=O)[C@H](N)CCCNC(=N)N)C(N)=O,HEK293 expressing NK1R,"antagonist, measured: SRE-SEAP","concentration not given, 30 min, washout 4 h, together with: substance P",,reporter activity,no effect
O=C(Cn1c(=O)c(Cc2ccccc2)nc2ccccc21)OCCNCCO,HCT-116,"qRT-PCR, measured: p21","concentration not given, 72 h",reference: untreated,mRNA level,3.19 ± 0.035 fold
Cc1c(C)c(C)[c-](C)c1C.[C-]#[O+].[C-]#[O+].[C-]#[O+].[Cl-].[Cl-].[Cl-].[Ir+3].[Re+].c1cnc(-c2ncccn2)nc1,MDA-MB-468,"mitochondrial co-localization, fluorescence microscopy","25 µM, 48 h",,Pearson correlation coefficient,0.764
COCc1nc(C(F)(F)F)[nH]c1-c1cc(C(=O)N2CC(c3ccc(C#N)cc3)C2)c(C)cc1C,NCI-H520,"β-tubulin palmitoylation, acyl-biotin exchange, measured: palmitoyl-β-tubulin",concentration not given,,inhibition,65%
CCCC(C)NC(=O)C(Nc1ccccc1C(=O)c1ccccc1)c1cn(C)c2ccccc12 (centres unmarked),BE(2)-C,"cell growth or viability, MTT",72 h,,GI50,5.4 µM
CC(=O)N[C@H](C(=O)N[C@H](C(=O)N[C@@H](CCCNC(=N)N)C(=O)N1Cc2ccccc2C[C@H]1C(=O)N[C@@H](Cc1ccccc1)C(N)=O)C1CCCCC1)C(C)C,MBP-specific BC-3 T cells,"Bio-Plex multiplex, measured: IFN-g","200 µg/mL, 24 h, together with: MBP87-99 antigen",,cytokine level,46.2 ± 17.8 pg/mL
C=C[C@H](OC(C)=O)c1ccc(OC(C)=O)cc1,MDA-MB-231,Western blot,"IC50, 24 h",reference: untreated,Bcl-2 protein decrease,40 to 50%
COc1cc(CNC(=O)C[C@H](C)CCC=C(C)C)ccc1O,UO-31,SRB,"10 µM, 48 h",,growth percent,60.7%
CCCCCCCCCCCCCCCC(=O)N[C@@H](CCC(=O)NCCCC[C@H](NC(=O)[C@H](CC(=O)O)NC(=O)[C@H](CO)NC(=O)[C@@H](NC(=O)[C@H](Cc1ccccc1)NC(=O)[C@@H](NC(=O)CNC(=O)[C@H](CCC(N)=O)NC(=O)[C@H](CO)NC(=O)[C@@H](N)Cc1c[nH]cn1)[C@@H](C)O)[C@@H](C)O)C(=O)N[C@@H](CO)C(=O)N[C@@H](CCC(=O)O)C(=O)N[C@@H](Cc1ccc(O)cc1)C(=O)N[C@@H](CC(C)C)C(=O)N[C@@H](CC(=O)O)C(=O)N[C@@H](CO)C(=O)N[C@@H](CCC(=O)O)C(=O)N[C@@H](CCCNC(=N)N)C(=O)N[C@@H](C)C(=O)N[C@@H](CCCNC(=N)N)C(=O)N[C@@H](CC(=O)O)C(=O)N[C@@H](Cc1ccccc1)C(=O)N[C@H](C(=O)N[C@@H](C)C(=O)N[C@@H](Cc1c[nH]c2ccccc12)C(=O)N[C@@H](CC(C)C)C(=O)N[C@@H](CCC(=O)O)C(=O)N[C@@H](C)C(=O)NCC(=O)NCC(=O)O)C(C)C)C(=O)O,primary rat hepatocytes,"cAMP accumulation, agonist",0.1% BSA,,EC50,0.000462 ± 5.7e-05 µM
CCc1cccc(CC)c1NC(=O)c1nn(C)c2c1CCc1cnc(Nc3ccc(N4CCN(C)CC4)cc3OC)nc1-2,HCT-116 C604Y clone B,cell proliferation,,reference: C604Y clone B over parental HCT-116,IC50 ratio,18.1
CCOC(=O)C1NC(c2ccc[n+](C)c2)C23c4c5c6c7c8c9c(c%10c%11c2c2c4c4c%12c5c5c6c6c8c8c%13c9c9c%10c%10c%11c%11c2c2c4c4c%12c%12c5c5c6c8c6c8c%13c9c9c%10c%10c%11c2c2c4c4c%12c5c6c5c8c9c%10c2c45)C713 (centres unmarked),BC-3,cell growth or viability,24 h,,CC50,9.6 µM
COc1cc([C@@H]2c3cc4c(cc3[C@@H](OCc3cc(-c5ccc(C)cc5)no3)[C@H]3COC(=O)C23)OCO4)cc(OC)c1OC (some centres unmarked),MIA PaCa-2,"cell growth or viability, SRB",48 h,,GI50,3.22 µM
COc1cc(CNC(=O)C[C@H](C)CCC=C(C)C)ccc1OCc1cn(-c2ccc(Cl)c(Cl)c2)nn1,SK-MEL-28 melanoma cells,SRB,"10 µM, 48 h",,growth percent,89.3%
CCCC(CCC)C(=O)[O][Pt]([NH2])([NH2])([Cl])([Cl])[O]C(=O)c1ccccc1OC(C)=O,HEK293 and BCPAP,"cytotoxicity, MTT",,reference: IC50 HEK293 over IC50 BCPAP,selectivity index,59
C[C@H](NC(=O)[C@H](Cc1c[nH]c2ccccc12)NC(=O)[C@@H](N)CCCNC(=N)N)C(=O)N[C@@H](Cc1c[nH]c2ccccc12)C(=O)N[C@@H](CCCNC(=N)N)C(=O)N[C@@H](Cc1c[nH]c2ccccc12)C(=O)N[C@@H](CCC(N)=O)C(=O)N[C@@H](Cc1c[nH]c2ccccc12)C(=O)N[C@@H](CCCNC(=N)N)C(N)=O,young human fibroblasts primary,MTT,"concentration not given, 48 h, 37 °C, 5% FBS",reference: untreated cells,viability,86 ± 4%
COc1cc2c(cc1C)NC(=O)C2=Cc1c(Cl)[nH]c2c1ccc1ccccc12,prostate cancer subpanel of NCI-60,,48 h,,TGI,3.02 µM
Cc1cnc2c(ccc3c(C)c(C)cnc32)c1C.O=C([O-])Cc1ccccc1Nc1c(Cl)cccc1Cl.O=C([O-])Cc1ccccc1Nc1c(Cl)cccc1Cl.[Cu+2],HMLER-shEcad,,"IC20, 5 d",,mammosphere number and size,no effect
CCCC(CCC)C(=O)[O][Pt]([NH2])([NH2])([Cl])([Cl])[O]C(=O)C(Cl)Cl,HEK293 and BCPAP,"cytotoxicity, MTT",,reference: IC50 HEK293 over IC50 BCPAP,selectivity index,198
CCCC(NC(=O)C(C#N)=Cc1nc(Cl)ccc1Cl)c1ccc(OCCN2CCOCC2)cc1 (centres unmarked),Ramos,LFQ mass spectrometry,"10 µM, 8 h",,overlap with Myc targets,11.7%
COc1cc2c(Nc3ccc(NC(=O)c4ccccc4)cc3)ncnc2cc1OCCCN1CCOCC1,"DLD-1, mitotic",measured: phospho-histone H3,concentration not given,,histone H3 phosphorylation,not detected
Nc1nc2cc(CC[C@H]3C[C@@H](n4ccc5c(N)ncnc54)[C@H](O)[C@@H]3O)ccc2cc1Br,NCI-H520,"cell growth or viability, MTT",6 days,,GI50,0.0004 µM
O=Cc1c(O)ccc2ccccc12,HUVEC,"RNA sequencing, measured: CLDN1","75 µM, 24 h",reference: DMSO,log2 fold change,3.25
C[C@H](NC(=O)[C@H](CCC(N)=O)NC(=O)[C@H](Cc1c[nH]c2ccccc12)NC(=O)[C@@H](N)CCCNC(=N)N)C(=O)N[C@@H](CCCNC(=N)N)C(=O)N[C@@H](Cc1c[nH]c2ccccc12)C(=O)N[C@@H](CCC(N)=O)C(=O)N[C@@H](Cc1c[nH]c2ccccc12)C(=O)N[C@@H](CCCNC(=N)N)C(N)=O,young human fibroblasts primary,MTT,"concentration not given, 2 h, 37 °C, 5% FBS",reference: untreated cells,viability,100 ± 4%
CCn1nc2c(c1Nc1nc(-c3ccc(-n4cnc(C)c4)c(OC)n3)cs1)CCCC2,SH-SY5Y-APP,,,reference: Aβ38 EC50 over Aβ42 IC50,selectivity ratio,10 fold
C=CC(OC(C)=O)c1cc(OC)cc(OC)c1 (centres unmarked),MDA-MB-231,"cell growth or viability, MTT",,,IC20,28 µM
C=C(C)[C@@H]1CC[C@]2(C(=O)OCO/N=[N+](\[O-])N3CCCC3)CC[C@]3(C)[C@H](CC[C@@H]4[C@@]5(C)CC[C@H](OC(C)=O)C(C)(C)[C@@H]5CC[C@]43C)[C@@H]12,B16-F10,PI flow cytometry,1.0 µM,,cells in S phase,43.1%
O=C1OCC2=C1C(c1cccc(Br)c1)C1=C(N2)C(=O)c2ccccc2C1=O (centres unmarked),SK-LU-1 cells,annexin V/PI,"0.32 µM, 24 h",,late apoptotic cells,7.1%
Cn1cc(-c2cc(N3CCCCS3(=O)=O)ccc2N[C@H]2CC[C@H](C)CC2)c2cc[nH]c2c1=O (stereo in doubt),TMD8,"cell growth or viability, CCK-8",72 h,,GI50,0.0022 µM
CCN(CC)CC(=O)Nc1cccc(-n2cc(-c3ccc4ccc(-c5cn(-c6cccc(NC(=O)CN(CC)CC)c6)nn5)cc4c3)nn2)c1,RCC4,"qRT-PCR, measured: HIF-1α",5 x IC50,reference: untreated,mRNA level,29.2%
CC(=O)OC[C@H]1O[C@@H](Sc2sc(C(=O)c3ccc(C)cc3)c(N)c2-c2nc3ccccc3s2)[C@H](OC(C)=O)[C@@H](OC(C)=O)[C@H]1OC(C)=O,Malme-3M,SRB,"10 µM, 48 h",reference: untreated,growth,98%
O=C(N1CCCC1)n1cc(-c2ccc(-c3ccccc3)cc2)nn1,mouse T-cells,"N-terminal labeled proteins, N-terminal enrichment proteomics, measured: NIBAN","1 nM, 6 h",reference: DMSO,SILAC ratio,1.3 ± 0.36
NS(=O)(=O)NCCc1ccccc1F,rat hippocampal cultures,CFDA and PI staining,"dose not given, together with: glutamate or hydrogen peroxide",,neuroprotection,inactive
C=CC(=O)Nc1cccc(-c2cnc3[nH]cc(C(=O)NC(C)(C)C)c3n2)c1,NK-S1,measured: phospho-STAT3/5,"1.0 µM, pre-treated 2 h",,time to full inhibition after washout,4 h
COc1cc(CNC(=O)C[C@H](C)CCC=C(C)C)ccc1OCc1cn(-c2ccc([N+](=O)[O-])cc2)nn1,NCI/ADR-RES,SRB,"10 µM, 48 h",,growth,17.6%
COc1ccc([C@@H]2CC(=O)c3c(O)cc(O[C@@H]4O[C@H](CO[C@@H]5O[C@@H](C)[C@H](O)[C@@H](O)[C@H]5O)[C@@H](O)[C@H](O)[C@H]4O)cc3O2)cc1O,A549,"cell growth or viability, MTS","50 µg/mL, 48 h",,viability,60.9%
CCC(=C(c1ccc(Cl)cc1)c1ccc(OCCCN(C)C)cc1)c1ccc(OC)cc1,UO-31,cell growth or viability,,,GI50,5.3 µM
COc1cc(CNC(=O)C[C@H](C)CCC=C(C)C)ccc1OCc1cn(-c2cccc(C(F)(F)F)c2)nn1,SNB-75 CNS cancer cells,SRB,"10 µM, 48 h",,growth percent,65.2%
CS(C)=O.CS(C)=O.[Cl][Cu][Cl].c1ccc(-c2nnc(-c3ccc4c(c3)OCO4)[nH]2)nc1,T24,JC-1 flow cytometry,"5.3 µM, 24 h",,cells with altered mitochondrial potential,35.1%
COc1cc(CNC(=O)C[C@H](C)CCC=C(C)C)ccc1OCc1cn(-c2ccccc2[N+](=O)[O-])nn1,SK-MEL-28 melanoma cells,SRB,"10 µM, 48 h",,growth percent,85.3%
CCNC(=O)OCc1c(COC(=O)NCC)c(-c2ccc(OC)cc2)n2c1Cc1ccccc1-2,H460 and PC-9/gef B4,"Western blot, measured: FANCD2","10 to 80 µM, 24 h",,protein level,increased
